# Assay results from different studies.
# A part holds a random share of what one study measured. Values joined by “and” are separate records of one study, mostly repeats; a detail may differ.
# Sequence of UniProt P61075 (whole entry, looked up): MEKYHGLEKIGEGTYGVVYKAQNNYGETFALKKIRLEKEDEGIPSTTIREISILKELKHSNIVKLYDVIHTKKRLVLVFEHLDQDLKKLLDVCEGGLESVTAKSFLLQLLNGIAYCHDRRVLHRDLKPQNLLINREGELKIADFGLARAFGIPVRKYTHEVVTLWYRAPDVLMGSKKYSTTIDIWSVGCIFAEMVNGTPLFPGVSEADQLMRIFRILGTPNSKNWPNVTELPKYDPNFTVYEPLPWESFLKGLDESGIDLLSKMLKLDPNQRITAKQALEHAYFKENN
# Sequence of UniProt P35367 (whole entry, looked up): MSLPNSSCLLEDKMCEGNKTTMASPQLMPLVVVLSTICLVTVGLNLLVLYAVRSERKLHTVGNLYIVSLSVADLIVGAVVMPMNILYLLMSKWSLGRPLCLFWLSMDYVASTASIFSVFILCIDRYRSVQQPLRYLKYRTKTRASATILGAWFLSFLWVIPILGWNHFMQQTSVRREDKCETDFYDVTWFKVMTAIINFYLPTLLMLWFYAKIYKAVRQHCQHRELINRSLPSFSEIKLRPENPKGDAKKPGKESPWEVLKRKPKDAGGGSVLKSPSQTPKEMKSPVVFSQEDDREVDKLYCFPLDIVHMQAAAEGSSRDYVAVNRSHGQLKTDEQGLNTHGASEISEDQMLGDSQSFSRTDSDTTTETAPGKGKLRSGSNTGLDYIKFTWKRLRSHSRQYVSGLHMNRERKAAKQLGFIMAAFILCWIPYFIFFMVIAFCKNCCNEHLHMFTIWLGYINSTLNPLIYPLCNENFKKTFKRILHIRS
# Sequence of UniProt P9WI81 (whole entry, looked up): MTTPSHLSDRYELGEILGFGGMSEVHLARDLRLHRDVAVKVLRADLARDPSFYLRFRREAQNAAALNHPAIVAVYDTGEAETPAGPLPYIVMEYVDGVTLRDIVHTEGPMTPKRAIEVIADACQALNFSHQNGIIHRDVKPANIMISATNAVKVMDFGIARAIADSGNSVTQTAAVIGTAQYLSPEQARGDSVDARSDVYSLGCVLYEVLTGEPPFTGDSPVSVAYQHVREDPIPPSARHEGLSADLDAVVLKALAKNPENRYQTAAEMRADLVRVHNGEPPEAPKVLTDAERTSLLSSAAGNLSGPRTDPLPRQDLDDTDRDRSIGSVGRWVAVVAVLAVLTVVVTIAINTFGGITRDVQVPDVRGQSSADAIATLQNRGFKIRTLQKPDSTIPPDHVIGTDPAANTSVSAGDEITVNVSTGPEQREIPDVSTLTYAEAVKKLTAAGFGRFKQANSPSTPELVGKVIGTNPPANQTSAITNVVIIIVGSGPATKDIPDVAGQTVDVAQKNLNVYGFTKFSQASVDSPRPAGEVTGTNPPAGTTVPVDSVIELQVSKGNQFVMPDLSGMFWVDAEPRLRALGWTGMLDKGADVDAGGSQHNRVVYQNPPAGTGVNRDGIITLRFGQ

# Set 1
# Structure (SMILES): O=C1CCC(N2Cc3c(ccc4c3OCC43CCN(Cc4ccccc4)CC3)C2=O)C(=O)N1 (stereo not shown)
# Target: Voltage-gated inwardly rectifying potassium channel KCNH2 (KCNH2, Homo sapiens, UniProt Q12809)
# Sequence of UniProt Q12809 (whole entry, looked up): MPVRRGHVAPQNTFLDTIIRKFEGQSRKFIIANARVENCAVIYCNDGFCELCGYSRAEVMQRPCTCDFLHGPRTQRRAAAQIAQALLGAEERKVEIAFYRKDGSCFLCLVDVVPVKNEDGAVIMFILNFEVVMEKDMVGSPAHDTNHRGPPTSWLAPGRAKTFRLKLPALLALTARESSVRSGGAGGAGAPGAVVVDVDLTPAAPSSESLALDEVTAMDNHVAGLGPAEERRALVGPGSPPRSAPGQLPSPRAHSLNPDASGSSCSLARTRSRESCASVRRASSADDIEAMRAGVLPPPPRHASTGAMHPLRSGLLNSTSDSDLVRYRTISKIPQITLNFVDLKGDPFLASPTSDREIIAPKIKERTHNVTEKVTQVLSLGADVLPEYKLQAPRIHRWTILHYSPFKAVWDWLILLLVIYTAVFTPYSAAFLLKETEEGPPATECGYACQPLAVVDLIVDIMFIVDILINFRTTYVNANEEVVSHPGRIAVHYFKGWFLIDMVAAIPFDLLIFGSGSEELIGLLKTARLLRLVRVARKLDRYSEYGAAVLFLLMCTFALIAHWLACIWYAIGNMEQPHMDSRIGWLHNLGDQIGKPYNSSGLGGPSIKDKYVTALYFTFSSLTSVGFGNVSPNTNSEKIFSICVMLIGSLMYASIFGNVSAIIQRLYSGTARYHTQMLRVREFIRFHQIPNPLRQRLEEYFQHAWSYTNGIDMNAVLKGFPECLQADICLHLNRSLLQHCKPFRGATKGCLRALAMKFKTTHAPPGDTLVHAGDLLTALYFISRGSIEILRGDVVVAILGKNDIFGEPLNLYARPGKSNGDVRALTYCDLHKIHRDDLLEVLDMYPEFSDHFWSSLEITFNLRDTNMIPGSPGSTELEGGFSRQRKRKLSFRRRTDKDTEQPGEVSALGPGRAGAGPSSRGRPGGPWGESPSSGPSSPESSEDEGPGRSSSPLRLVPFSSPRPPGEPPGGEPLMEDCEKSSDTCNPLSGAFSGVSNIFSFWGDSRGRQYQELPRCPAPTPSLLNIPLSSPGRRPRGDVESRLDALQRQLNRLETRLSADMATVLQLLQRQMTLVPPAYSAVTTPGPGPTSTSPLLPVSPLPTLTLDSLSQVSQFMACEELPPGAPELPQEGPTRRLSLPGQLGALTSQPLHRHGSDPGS
# Effect on: hERG current
technique,cell line,tested at,inhibition
voltage clamp,HEK293 stably expressing hERG,1 µM,84.1% and 91.3% and 85.6%
voltage clamp,HEK293 stably expressing hERG,0.01 µM,3.32% and 5.31% and 0.58%
patch clamp,HEK293 expressing hERG,0.01 µM,4.32%

# Set 2
# Organism: Sarcocystis neurona
# Effect on: parasite growth
# Tested at: 10 µM
# Time: 96 h
# Notes: first screen
SMILES,inhibition [%]
c1ccc(Cn2ccnc2)cc1,-0.173
NC(=O)OCCCc1ccccc1,-29.5
C[C@H]1CCC[C@H](O)CCCCCc2cc(O)cc(O)c2C(=O)O1,32.7

# Set 3
# Species: mouse
# Matrix: microsomes or S9
# Tested at: 2 µM
# Time: 0.5 h
SMILES,remaining compound
COc1cccc(Cn2nnc3cc(C(=O)N4CCC5(CC4)OCCO5)ccc32)c1,22%
Cc1ccc(/N=C/N(C)/C=N/c2ccc(C)cc2C)c(C)c1,6.15%
CC(C)n1c(C(=O)NCc2nnc3ccccn23)cc2cc(Cl)ccc21,38.4%

# Other studies, line by line
Compound,target or system,assay,setting,how to read,endpoint,result
CNC(=O)c1cc(C(=O)NC2CC2)cn(Cc2ccccc2)c1=O,"HRH1 (Homo sapiens, UniProt P35367)","binding, radioligand binding",10 µM,,inhibition,-13.1%
CN[C@@H]1C[C@H]2O[C@@](C)([C@@H]1OC)n1c3ccccc3c3c4c(c5c6ccccc6n2c5c31)C(=O)NC4,normal adjacent epithelium patient-derived organoids,CellTiter-Glo,"1 µM, mean of five organoid lines",baseline: DMSO,viability,2%
CS(=O)(=O)N1CCCC(NC(=O)[C@H](CCC2CCCCC2)NC(=O)c2ccc(CNC(=O)c3cnc4ccccn34)cc2)C1 (stereo partly shown),"pknB (Mycobacterium tuberculosis, UniProt P9WI81)","cell-free assay, competition with immobilised ligand",0.1 µM,,remaining binding,100%
CN(C(=O)c1ccccc1)c1cc(N(C)c2ccc3c(c2)CCc2ccc(C(=O)NCCN4CCOCC4)cc2C3=O)ccc1F,"CRK2 (Plasmodium falciparum, UniProt P61075)","cell-free assay, competition with immobilised ligand",1 µM,,remaining binding,100%

# Excerpt of the above (set 3):
SMILES,remaining compound
CC(C)n1c(C(=O)NCc2nnc3ccccn23)cc2cc(Cl)ccc21,38.4%
COc1cccc(Cn2nnc3cc(C(=O)N4CCC5(CC4)OCCO5)ccc32)c1,22%
